# Published values gathered from unrelated publications.
# Numbers after ± are the reported error.
# Alpha-amylase: Alpha-amylase (Bacillus subtilis, UniProt P00691)
# RMS3: RMS3 (Lathyrus oleraceus, UniProt A0A109QYD3)
# ALB: Albumin (ALB, Bos taurus, UniProt P02769)
# gdpP residues 84-659: gdpP, residues 84-659 (Bacillus subtilis, UniProt P37484)
# xlnD: Exo-1,4-beta-xylosidase xlnD (xlnD, Emericella nidulans, UniProt Q5BAS1)
Structure (SMILES),target,test,test system,setting,scale,quantity,result
Nc1ncnc2c1ncn2[C@@H]1O[C@H](COP(=O)(O)OP(=O)(O)OC[C@H]2O[C@@H](O)[C@H](O)[C@@H]2O)[C@@H](O)[C@H]1O,"Protein mono-ADP-ribosyltransferase PARP14, macrodomain 2 (PARP14, Homo sapiens, UniProt Q460N5)",binding,,,,ΔH,-9 ± 0.07 kcal/mol
CC(C)P(=[Se])(NP(=[Se])(C(C)C)C(C)C)C(C)C,Alpha-amylase,"binding, Van't Hoff analysis",,"pH 6.8, 298–310 K",,ΔH,55.3 kcal/mol
CC1=C[C@H](O/C=C2/C(=O)O[C@@H]3c4ccccc4C[C@H]23)OC1=O (racemic),RMS3,differential scanning fluorimetry,,concentration not given,,melting temperature decrease,8 °C
CC(C)P(=S)(NP(=S)(C(C)C)C(C)C)C(C)C,Alpha-amylase,fluorescence quenching,,"concentration not given, pH 6.8, 310 K",,ΔG of binding,-4.31 kcal/mol
CC1CN1c1cc(O)c2nc(N)sc2c1 (centres unmarked),"Histone-lysine N-methyltransferase, H3 lysine-36 specific, SET domain (NSD1, Homo sapiens, UniProt Q96L73)",HiBiT CETSA,HEK293T,"5 µM, 24 h, SET domain",baseline: DMSO,thermal shift,~4 °C
Oc1ccc2c(c1)[O][Pt-2]1([Cl])[N+](=C2)Cc2cccc[n+]21 (centres unmarked),ALB,binding to BSA,,,,binding free energy,-9.54 kcal/mol
O=C([N-]c1nc2ccccc2s1)c1cnccn1.[Cl-].[Ru+2].c1ccc(P(c2ccccc2)c2ccccc2)cc1.c1ccc(P(c2ccccc2)c2ccccc2)cc1,ALB,tryptophan fluorescence quenching,,concentration not given,,number of binding sites,0.85
CC(=O)NC(Cc1ccc(Br)c(Cl)c1)C(=O)N[C@@H](C)C(=O)N1CCC[C@H]1C(=O)N1CCC[C@H]1C(=O)N[C@@H](CCC(=O)O)C(=O)N[C@@H](Cc1c[nH]cn1)C(=O)N[C@@H](CO)C(=O)N[C@H](C(=O)N[C@@H](C)C(N)=O)[C@@H](C)OP(=O)(O)O (some centres unmarked),"PLK3 (Homo sapiens, UniProt Q9H4B4)","enzyme activity, inhibitor",,10 µM,,inhibition,2.27%
Nc1nc2ncc(CNc3ccc(C(=O)N[C@@H](CCC(=O)NCCOCCOCCNC(=O)CN4CCN5CCN(CC4)CC(=O)[O][Al]([18F])[O]C(=O)C5)C(=O)O)cc3)nc2c(=O)[nH]1,"FOLR1 (Homo sapiens, UniProt P15328)",radioligand saturation binding,xenograft homogenates,,baseline: KB over CAL-51 xenografts,binding potential ratio,22 fold
CCOC(=O)/C=C/[C@H](C[C@@H]1CCNC1=O)NC(=O)[C@H](Cc1ccccc1)NC(=O)[C@H](COC(C)(C)C)NC(=O)OCc1ccccc1,"Genome polyprotein, 3C protease (Encephalomyocarditis virus, UniProt P03304)","protease activity, cell-based reporter",,,,FLuc reporter expression,no effect
Nc1nc(N)c2ncn([C@@H]3O[C@@H]4COP(=O)(O)O[C@H]5[C@@H](O)[C@H](n6cnc7c(N)nc(N)nc76)O[C@@H]5COP(=O)(O)O[C@H]4[C@H]3O)c2n1,gdpP residues 84-659,HPLC,,concentration not given,"baseline: c-di-AMP, higher = slower hydrolysis",hydrolysis rate fold decrease,≥ 4100
CCN(Cc1ccccc1)C(=O)CCc1nc(CN2CCN(C(=O)Cc3ccc(OC)c(OC)c3)CC2)no1,"KCNQ2 (Homo sapiens, UniProt O43526)","potassium current, opener, whole-cell patch clamp",CHO stable,"1 µM, -10 mV",,current density,21.6 ± 4.43 pA/pF
O=C(Nc1ccc(-c2nnn[nH]2)cc1Cc1ccccc1)c1cccc(CC2CCCCC2)n1,"Capsid scaffolding protein, protease domain (Human herpesvirus 8 type P, UniProt Q2HRB6, R82Q)","enzyme activity, inhibitor",,pH 8,baseline: mutant over wild type,IC50 ratio,3 to 4 fold
O=C(Oc1cccc2c1C(=O)C=CC2=O)c1ccccc1,"Serine hydrolase RBBP9 (Rbbp9, Mus musculus, UniProt O88851)","inhibitor, gel-based competitive ABPP",,,baseline: mouse over human RBBP9,IC50 ratio,~50 fold
O=C(NC1CCSC1=O)C1CCC1 (centres unmarked),"rhlR (Pseudomonas aeruginosa, UniProt P54292)","reporter gene, agonist, refers to: rhlI-gfp fluorescence",PAO-JP2 reporter,,,maximal activation,90%
O=P1(O)OC[C@H]2O[C@@H](n3cnc4cncnc43)[C@H](O)[C@@H]2OP(=O)(O)OC[C@H]2O[C@@H](n3cnc4cncnc43)[C@H](O)[C@@H]2O1,gdpP residues 84-659,HPLC,,concentration not given,"baseline: c-di-AMP, higher = slower hydrolysis",hydrolysis rate fold decrease,36
CCCN1CCc2cc(O)cc3c2[C@H]1Cc1ccc(O)c(O)c1-3,"Carbamate kinase (Giardia intestinalis, UniProt A8BB85)","enzyme activity, inhibitor, luminescence, ATP detection",Giardia lamblia,,,maximal inhibition,86.8%
Cn1cc(-c2cccc(CN3CCC4(CC3)COc3c4ccc4c3CN([C@H]3CCC(=O)NC3=O)C4=O)c2)cn1,"CRBN/Zinc finger protein Helios (Homo sapiens, UniProt Q96SW2+Q9UKS7)",degrader,"HEK293, HiBiT-tagged Helios",concentration not given,,time to maximal degradation,≤ 3 h
O=C(Nc1cccc(-c2nn[nH]n2)c1)c1cc(-c2cccs2)cc(C(F)(F)F)c1,CTX-M-27 beta-lactamase,surface plasmon resonance,,,,Kd/Ki difference,2 to 3 fold
CC[C@H](C)[C@H](NC(=O)[C@H](CC(=O)O)NC(C)=O)C(=O)N[C@H](C(=O)N[C@H](C(=O)N[C@@H](CCCNC(=N)N)C(=O)N[C@@H](Cc1ccc(O)cc1)C(=O)N[C@@H](CC(N)=O)C(=O)NCC(=O)N[C@@H](CCCCN)C(=O)N[C@H](C(=O)N[C@@H](Cc1c[nH]c2ccccc12)C(=O)N[C@@H](Cc1c[nH]c2ccccc12)C(=O)N[C@@H](CCCNC(=N)N)C(=O)O)C(C)C)[C@@H](C)O)[C@@H](C)O,"Insulin (INS, Bos taurus, UniProt P01317)",isothermal titration calorimetry,,"pH 2.6, 25 °C",,"Ka, site 2",60100 M⁻¹
CC1=C(C)[C@H](Oc2c(F)cc3c(C)cc(=O)oc3c2F)OC1=O,RMS3,"enzyme activity, substrate, DiFMU release",,pre-steady state,,K1/2,1.56 µM
N=C(N)SCc1ccc(B(O)O)cc1,"Furin (FURIN, Homo sapiens, UniProt P09958)","enzyme activity, inhibitor",,"up to 10 µM, with: pERTKR-AMC 5 µM",,IC50,inactive
O=C(O)COc1ccc(Cl)cc1,"Chloride channel protein (Torpedo marmorata, UniProt P21564, C212S)","chloride channel gating, inhibitor, kinetic model fit",,,baseline: drug-free channel,free energy lowering of closed state,~1.74 kcal/mol
Oc1ccc(O)c2ccccc12,"PAK1 (Homo sapiens, UniProt Q13153, T423E)",inhibitor,,"40 µM, 0.5 h",,MBP phosphorylation,decreased
Cc1ccc2c(n1)c(-c1cccc(S(C)(=O)=O)c1)c(C)n2C/C(F)=C/CN,"LOXL2 (Homo sapiens, UniProt Q9Y4K0)","enzyme activity, activity-based probe",healthy human volunteers,"oral, 100 mg, 24 h after last dose, multiple ascending dose",,remaining activity,6%
CC(=O)N[C@@H](Cc1c[nH]c2ccccc12)C(=O)N[C@@H](CCC(=O)O)C(=O)N[C@@H](Cc1c[nH]cn1)C(=O)N[C@@H](CC(=O)O)C(=O)Nc1ccc2c(C)cc(=O)oc2c1,"Caspase-10 (CASP10, Homo sapiens, UniProt Q92851)","substrate cleavage, substrate, fluorogenic AMC release",,enzyme 0.25 activity units/µL,,Vmax,131 ± 19.7 RFU/min
CN1/C(=C/C=C/C=C/C2=[N+](CCCCCC(=O)NCCCCCCCCN3[C@H]4[C@H](O)[C@@H](O)[C@H](O[C@@H]5OC[C@@H](O)[C@H](O)[C@H]5O)C[C@H]43)c3ccccc3C2(C)C)C(C)(C)c2ccccc21 (some centres unmarked),xlnD,covalent inhibitor,Aspergillus nidulans,"pH 4.5, ambient, with: 4MU-β-D-xyloside",,kinact,0.00583 s⁻¹
C=Cc1cc(OC)c2c(c1)c(=O)oc1c2cc(OC)c2c(O)ccc([C@@H]3O[C@H](C)[C@H](O)[C@@](C)(O)[C@H]3O)c21,"Bifunctional protein GlmU (Staphylococcus aureus, UniProt Q5HIH6, G277S)","binding, microscale thermophoresis",,,baseline: G277S mutant over wild type,Kd fold increase,10.4 fold
CS(C)(=O)=Nc1ccc(-c2ccc(-c3nc4cc(O[C@@H]5CO[C@H]6[C@@H]5OC[C@H]6O)[nH]c4cc3F)cc2)cc1,"PRKAA2/PRKAB1, with gamma1 (Homo sapiens, UniProt P54646+Q9Y478)","enzyme activity, activator",,"60 min, 50% above basal activity, with: ATP 50 µM",,EC150,0.376 nM
CC(C)CC(NC(=O)C(NC(=O)NC(C(=O)O)C(C)C)C1CCNC(=N)N1)C(=O)NCCCNC(C(=O)O)C(OC1OC(CN)C(O)C1O)C1OC(n2ccc(=O)[nH]c2=O)C(O)C1O (centres unmarked),"mraY (Aquifex aeolicus, UniProt O66465)","binding, isothermal titration calorimetry",,"wild type, without Mg2+",,ΔS,6.5 ± 2 cal/mol/K
NC(=NN=Cc1cccs1)[S][Ru+]([Cl])([P](c1ccccc1)(c1ccccc1)c1ccccc1)[P](c1ccccc1)(c1ccccc1)c1ccccc1.[Cl-],ALB,"binding, UV-Vis absorption titration",,,,apparent association constant,61100 M⁻¹
CC[C@H](C)[C@H](N)C(=O)N[C@@H](CC(N)=O)C(=O)N[C@@H](CCCCN)C(=O)N[C@@H](CCC(N)=O)C(=O)NCC(=O)N[C@@H](CC(=O)O)C(=O)N[C@H](C(=O)N[C@H](C(=O)N[C@H](C(=O)N[C@@H](CC(C)C)C(=O)N[C@@H](CO)C(=O)N[C@@H](CC(N)=O)C(=O)NCC(=O)N[C@@H](CC(N)=O)C(=O)N[C@H](C(=O)N[C@@H](CCC(N)=O)C(=O)N[C@@H](CC(C)C)C(=O)N[C@H](C(N)=O)[C@@H](C)O)[C@@H](C)O)C(C)C)[C@@H](C)O)C(C)C,"PPG and sAP, Leishmania",surface plasmon resonance,,,baseline: PPG over sAP,binding ratio,9 fold
CC(C)OC(=O)[C@H](C)NP(=S)(Oc1ccccc1)c1ccccc1 (some centres unmarked),"Carboxypeptidase Y (Saccharomyces cerevisiae, UniProt P00729)","substrate, LC-MS/MS",,"5 µM, pH 7.4, 37 °C, with: carboxypeptidase Y 60 ng/mL",,degradation rate constant,0.0178 min⁻¹
O[C@@H]1[C@@H](O)[C@H](O[C@@H]2OC[C@@H](O)[C@H](O)[C@H]2O)C[C@H]2N[C@@H]12,xlnD,covalent inhibitor,Aspergillus nidulans,"pH 4.5, ambient, with: 4MU-β-D-xyloside",,kinact,0.00433 s⁻¹
O=C(c1ccc(Nc2c3c(nc4ccccc24)CCCC3)cc1)C1CC1,"Cholinesterase (BCHE, Equus caballus, UniProt P81908)","enzyme activity, inhibitor",,100 µM,,inhibition,-35%
